Measured values from different studies.
Lines come from different studies, so protocols differ.
Target: Serine/threonine-protein kinase Nek2 (NEK2, Homo sapiens, UniProt P51955)

`NC(=O)C[C@H]1CCc2sc3ncnc(O[C@H]4CC[C@H](N5CCOCC5)CC4)c3c21` gave an inhibition of 0% (enzyme activity, inhibitor; 10 µM).
For `CNC(=O)C[C@H](Cc1ccc(C#N)cc1)NC(=O)c1cc(-c2ccc(CN[C@H](C)c3ccc(C)cc3)o2)ccc1Cl`, “activity vs control” read 122% (enzyme activity, inhibitor; 1 µM).
For `COc1cc(Nc2nccc(-c3cnn4nc(OC)ccc34)n2)cc(C(F)(F)F)c1`, the remaining binding was 100% (binding, competition with immobilised ligand; 1 µM).
With `CN1C[C@@H](c2c[nH]c3cc(Br)ccc23)NC[C@@H]1c1c[nH]c2cc(Br)ccc12` the remaining activity was 100% (enzyme activity, inhibitor; 10 µM).
For `CCN1CCN(Cc2ccc(C(=O)Nc3ccc(C)c(NCc4cnc5[nH]ccc5c4OC)c3)cc2C(F)(F)F)CC1`, the remaining binding was 75% (binding, competition with immobilised ligand; 1 µM).
`COc1ccc(O)cc1-c1c[nH]c2ncc(-c3cncc(C(=O)N(C)C)c3)cc12` has an inhibition of -11.9% (binding, competition with immobilised ligand; 0.2 µM).
`Cc1nc2c(F)cc(-c3nc(Nc4ccc(CNC(=O)CCCCCCC(=O)NO)cc4)ncc3F)cc2n1C(C)C` has an inhibition of 76% (enzyme activity, inhibitor; 1 µM).
With `O=C(O)CCC(=O)c1cccc(NS(=O)(=O)c2c[nH]c3ncccc23)c1` the remaining activity was 105% (kinase activity, radiometric; 10 µM).
`COc1c(Cl)cccc1Nc1c(-c2ccncc2C#C[C@@]2(C)CCCN2C(=O)/C=C/CN(C)C)[nH]c2c1C(=O)NCC2` has a remaining binding of 81% (binding, competition with immobilised ligand; 3 µM).
For `CNC1C[S+]2CC[S+]3CC[S+](C1)[Ru-4]321([N]=C=S)[n]2c3ccc(OC)cc3c3c4c(c5cc(F)c[n+]1c5c32)C(=O)NC4=O` (stereo not shown), the remaining binding was 100% (KinomeScan; 0.1 µM; relative to: untreated).
For `Cc1ccc(C)c(-c2ccc3nc(NC(=O)C4CCCCC4)nn3c2)c1`, the remaining activity was 77% (enzyme activity, Dundee kinase panel; 10 µM).
With `C=CC(=O)N1Cc2nc(-c3cc(-c4cc(Cl)cnc4Cl)c(F)cc3F)n(-c3ccncn3)c2C1` the inhibition was -1.5% (cell-free assay, inhibitor; 1 µM).
The inhibition of `CS(=O)(=O)Nc1cccc(-c2csc3cnc(Nc4ccc(N5CCN(CCCCCOc6cccc7c6C(=O)N(C6CCC(=O)NC6=O)C7=O)CC5)cc4)nc23)c1` (stereo not shown) is reported as 22.7% (probe labelling, inhibitor, KiNativ chemoproteomics; MOLT-4; 1 µM).
With `COc1c(OCCCN2CCOCC2)ccc2c1N=C(NC(=O)c1cnc(N)nc1)N1CCN=C21` the remaining activity was 107% (kinase activity, inhibitor; 1 µM; relative to: untreated control).
`Cc1cccc(-c2ccc3nc(NC(=O)C4CCCO4)nn3c2)c1` (stereo not shown) gave a remaining activity of 89% (enzyme activity, Dundee kinase panel; 10 µM).
`C=CC(=O)Nc1cccc(-c2cnc3[nH]cc(C(=O)NC(C)(C)C)c3n2)c1` gave an inhibition of 14% (enzyme activity, inhibitor; 0.1 µM).
With `CN1CCN(Cc2ccc(-c3ccc(CO[C@H]4CCC[C@@H]4NC(=O)c4cc(-c5cnn(C)c5)cnc4N)cc3)cc2)CC1` the inhibition was 2% (enzyme activity, inhibitor; 0.1 µM).
For `C=CC(=O)Nc1cc(-c2nn(C3CCN(CCNC(=O)[C@H](C)CCC45CC6CC(CC(C6)C4)C5)CC3)c3ncnc(N)c23)ccc1Oc1ccccc1`, the inhibition was 3.1% (inhibitor, KiNativ profiling; biochemical; 2 µM).
For `Nc1ncc(-c2cc(-c3cnn(CC(F)(F)F)c3)ncc2F)nc1C(=O)NC1CNCC(F)C1` (stereo not shown), the remaining activity was 100% (enzyme activity; 1 µM; relative to: DMSO control).
`O=c1c(-c2ccc(Cl)c(CN3CCOCC3)c2)coc2cc(O)ccc12` has a remaining activity of 81% (enzyme activity, inhibitor; 1 µM).
`O=C(Cc1ccc(OCc2ccccc2)cc1)NC1(C(=O)O)CCN(C(=O)c2ccc(-c3cccc(Cl)c3)cc2)CC1`: “activity vs control” 102% (enzyme activity, inhibitor; 10 µM).
`Cc1cccc(O[C@H]2CCC[C@@H](C(C)CNCc3ccncc3)C2)c1` (relative stereo) has an inhibition of -7% (enzyme activity, inhibitor; 10 µM).

Some of these lines once more:
For `Nc1ncc(-c2cc(-c3cnn(CC(F)(F)F)c3)ncc2F)nc1C(=O)NC1CNCC(F)C1` (stereo not shown), the remaining activity was 100% (enzyme activity; 1 µM; relative to: DMSO control).
For `CNC(=O)C[C@H](Cc1ccc(C#N)cc1)NC(=O)c1cc(-c2ccc(CN[C@H](C)c3ccc(C)cc3)o2)ccc1Cl`, “activity vs control” read 122% (enzyme activity, inhibitor; 1 µM).
